Experimental data from different studies.
Every numbered part comes from another study and shows a few of its results, in no order. Several values in a cell are separate wells, animals, samples, runs or records.
UniProt P42336, sequence (whole entry, unmodified, looked up): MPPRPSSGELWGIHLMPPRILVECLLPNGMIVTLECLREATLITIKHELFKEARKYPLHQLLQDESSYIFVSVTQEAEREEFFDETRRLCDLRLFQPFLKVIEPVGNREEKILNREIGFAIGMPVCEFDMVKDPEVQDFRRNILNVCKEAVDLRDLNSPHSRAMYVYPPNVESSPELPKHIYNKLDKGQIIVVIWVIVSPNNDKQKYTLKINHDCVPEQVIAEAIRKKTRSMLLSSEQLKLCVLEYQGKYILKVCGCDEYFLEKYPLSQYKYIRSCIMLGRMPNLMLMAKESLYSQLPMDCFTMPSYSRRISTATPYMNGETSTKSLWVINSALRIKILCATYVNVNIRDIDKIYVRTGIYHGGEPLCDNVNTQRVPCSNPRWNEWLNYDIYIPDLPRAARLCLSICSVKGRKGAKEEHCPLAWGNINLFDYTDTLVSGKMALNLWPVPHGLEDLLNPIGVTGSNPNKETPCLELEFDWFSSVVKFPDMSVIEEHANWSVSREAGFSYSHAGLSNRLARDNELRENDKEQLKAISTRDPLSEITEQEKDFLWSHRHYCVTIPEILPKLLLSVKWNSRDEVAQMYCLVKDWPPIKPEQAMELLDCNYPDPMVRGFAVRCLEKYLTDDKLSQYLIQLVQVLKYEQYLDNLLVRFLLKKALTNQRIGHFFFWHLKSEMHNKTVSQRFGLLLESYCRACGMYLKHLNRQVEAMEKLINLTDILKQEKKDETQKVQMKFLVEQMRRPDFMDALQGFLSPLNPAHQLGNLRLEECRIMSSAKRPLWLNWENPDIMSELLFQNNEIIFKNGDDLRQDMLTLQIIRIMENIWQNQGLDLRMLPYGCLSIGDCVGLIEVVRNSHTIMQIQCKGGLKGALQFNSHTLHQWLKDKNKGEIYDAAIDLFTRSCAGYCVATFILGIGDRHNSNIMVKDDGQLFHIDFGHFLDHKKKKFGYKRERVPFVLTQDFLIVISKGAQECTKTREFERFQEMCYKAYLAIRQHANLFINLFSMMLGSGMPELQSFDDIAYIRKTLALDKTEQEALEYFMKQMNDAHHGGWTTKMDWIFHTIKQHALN
UniProt Q02763, sequence (whole entry, looked up): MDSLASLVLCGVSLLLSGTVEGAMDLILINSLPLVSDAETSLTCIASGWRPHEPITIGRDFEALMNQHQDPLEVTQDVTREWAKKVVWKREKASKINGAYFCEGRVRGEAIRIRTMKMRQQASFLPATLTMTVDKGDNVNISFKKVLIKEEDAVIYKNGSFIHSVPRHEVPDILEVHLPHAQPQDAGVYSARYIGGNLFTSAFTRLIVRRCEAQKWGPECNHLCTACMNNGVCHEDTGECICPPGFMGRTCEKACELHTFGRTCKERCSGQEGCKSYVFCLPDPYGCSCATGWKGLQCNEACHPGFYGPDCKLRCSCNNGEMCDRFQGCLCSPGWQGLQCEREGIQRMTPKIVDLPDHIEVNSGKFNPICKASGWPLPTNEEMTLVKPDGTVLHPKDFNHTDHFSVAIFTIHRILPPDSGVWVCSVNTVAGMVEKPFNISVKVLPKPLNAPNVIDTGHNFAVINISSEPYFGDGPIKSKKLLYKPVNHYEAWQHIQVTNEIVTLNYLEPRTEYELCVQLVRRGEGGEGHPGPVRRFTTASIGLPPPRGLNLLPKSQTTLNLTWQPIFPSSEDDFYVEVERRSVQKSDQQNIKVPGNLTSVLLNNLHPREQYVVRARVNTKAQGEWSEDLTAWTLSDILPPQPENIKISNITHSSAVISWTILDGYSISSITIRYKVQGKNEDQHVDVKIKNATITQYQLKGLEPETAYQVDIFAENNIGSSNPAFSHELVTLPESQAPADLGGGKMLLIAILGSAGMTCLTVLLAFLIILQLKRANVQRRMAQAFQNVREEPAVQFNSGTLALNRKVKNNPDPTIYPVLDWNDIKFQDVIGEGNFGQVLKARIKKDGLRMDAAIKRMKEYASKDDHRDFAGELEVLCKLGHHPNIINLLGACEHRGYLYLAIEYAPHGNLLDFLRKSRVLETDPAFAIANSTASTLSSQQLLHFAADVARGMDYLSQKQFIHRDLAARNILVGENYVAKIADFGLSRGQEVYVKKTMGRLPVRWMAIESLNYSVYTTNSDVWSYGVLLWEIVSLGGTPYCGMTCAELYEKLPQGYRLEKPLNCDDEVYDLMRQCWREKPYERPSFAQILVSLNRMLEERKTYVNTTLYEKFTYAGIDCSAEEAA
UniProt P54753, sequence (whole entry, looked up): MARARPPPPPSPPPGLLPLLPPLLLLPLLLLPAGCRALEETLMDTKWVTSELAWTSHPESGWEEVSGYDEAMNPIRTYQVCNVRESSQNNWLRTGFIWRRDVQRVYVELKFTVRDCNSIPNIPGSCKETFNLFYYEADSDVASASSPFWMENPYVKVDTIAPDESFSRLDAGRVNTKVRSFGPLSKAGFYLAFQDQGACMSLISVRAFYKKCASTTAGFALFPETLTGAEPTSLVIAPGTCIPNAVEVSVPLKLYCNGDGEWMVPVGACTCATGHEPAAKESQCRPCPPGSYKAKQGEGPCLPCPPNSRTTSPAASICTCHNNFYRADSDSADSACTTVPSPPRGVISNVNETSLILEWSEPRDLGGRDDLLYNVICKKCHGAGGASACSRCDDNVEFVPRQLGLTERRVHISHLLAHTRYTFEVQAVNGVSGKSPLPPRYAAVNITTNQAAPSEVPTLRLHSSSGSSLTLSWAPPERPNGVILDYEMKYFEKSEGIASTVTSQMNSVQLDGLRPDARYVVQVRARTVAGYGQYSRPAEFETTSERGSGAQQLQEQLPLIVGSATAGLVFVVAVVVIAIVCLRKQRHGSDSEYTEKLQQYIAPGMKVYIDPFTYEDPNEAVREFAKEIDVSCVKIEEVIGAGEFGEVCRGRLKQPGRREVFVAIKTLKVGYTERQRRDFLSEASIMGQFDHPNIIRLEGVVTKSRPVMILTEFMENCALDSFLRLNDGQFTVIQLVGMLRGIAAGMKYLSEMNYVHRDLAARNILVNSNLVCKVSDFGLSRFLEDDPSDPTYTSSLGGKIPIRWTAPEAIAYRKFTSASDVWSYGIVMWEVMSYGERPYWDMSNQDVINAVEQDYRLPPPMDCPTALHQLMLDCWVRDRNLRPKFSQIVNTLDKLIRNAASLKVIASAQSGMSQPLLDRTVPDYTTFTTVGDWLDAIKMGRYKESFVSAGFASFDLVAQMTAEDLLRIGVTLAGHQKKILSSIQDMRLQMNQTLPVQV
UniProt O43683, sequence (whole entry, looked up): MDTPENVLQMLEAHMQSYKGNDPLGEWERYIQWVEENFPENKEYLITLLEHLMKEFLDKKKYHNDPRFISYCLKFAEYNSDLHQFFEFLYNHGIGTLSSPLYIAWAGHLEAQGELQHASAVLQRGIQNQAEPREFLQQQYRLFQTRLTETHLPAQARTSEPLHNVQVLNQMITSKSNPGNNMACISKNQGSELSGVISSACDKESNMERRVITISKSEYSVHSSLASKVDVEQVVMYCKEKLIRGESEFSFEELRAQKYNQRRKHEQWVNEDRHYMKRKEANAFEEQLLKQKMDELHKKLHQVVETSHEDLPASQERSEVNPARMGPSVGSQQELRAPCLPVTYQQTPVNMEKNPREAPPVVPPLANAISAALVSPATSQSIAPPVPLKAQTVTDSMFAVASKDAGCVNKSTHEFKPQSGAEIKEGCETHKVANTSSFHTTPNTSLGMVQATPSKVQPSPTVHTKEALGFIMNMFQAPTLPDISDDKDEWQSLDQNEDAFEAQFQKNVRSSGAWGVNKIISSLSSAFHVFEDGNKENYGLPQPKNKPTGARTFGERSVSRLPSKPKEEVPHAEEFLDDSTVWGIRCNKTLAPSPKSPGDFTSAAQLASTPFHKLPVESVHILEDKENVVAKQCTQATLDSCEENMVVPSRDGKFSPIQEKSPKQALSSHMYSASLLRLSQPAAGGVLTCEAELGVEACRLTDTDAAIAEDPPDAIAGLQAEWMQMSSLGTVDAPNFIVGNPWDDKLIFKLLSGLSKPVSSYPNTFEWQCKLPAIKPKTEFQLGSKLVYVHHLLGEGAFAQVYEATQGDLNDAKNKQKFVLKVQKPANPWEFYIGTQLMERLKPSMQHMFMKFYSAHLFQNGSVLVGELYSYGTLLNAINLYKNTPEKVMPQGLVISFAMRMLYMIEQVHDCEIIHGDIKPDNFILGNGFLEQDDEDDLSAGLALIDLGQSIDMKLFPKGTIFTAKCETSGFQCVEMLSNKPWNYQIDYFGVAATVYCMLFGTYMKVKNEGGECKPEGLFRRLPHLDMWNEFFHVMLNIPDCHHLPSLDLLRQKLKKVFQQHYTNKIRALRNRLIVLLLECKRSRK

Block 1 — observed: enzyme activity; mode: inhibitor; concentration: 0.5 µM; reference: control
Target: Serine/threonine-protein kinase PLK1 (PLK1, Homo sapiens, UniProt P53350)
UniProt P53350, sequence (whole entry, looked up): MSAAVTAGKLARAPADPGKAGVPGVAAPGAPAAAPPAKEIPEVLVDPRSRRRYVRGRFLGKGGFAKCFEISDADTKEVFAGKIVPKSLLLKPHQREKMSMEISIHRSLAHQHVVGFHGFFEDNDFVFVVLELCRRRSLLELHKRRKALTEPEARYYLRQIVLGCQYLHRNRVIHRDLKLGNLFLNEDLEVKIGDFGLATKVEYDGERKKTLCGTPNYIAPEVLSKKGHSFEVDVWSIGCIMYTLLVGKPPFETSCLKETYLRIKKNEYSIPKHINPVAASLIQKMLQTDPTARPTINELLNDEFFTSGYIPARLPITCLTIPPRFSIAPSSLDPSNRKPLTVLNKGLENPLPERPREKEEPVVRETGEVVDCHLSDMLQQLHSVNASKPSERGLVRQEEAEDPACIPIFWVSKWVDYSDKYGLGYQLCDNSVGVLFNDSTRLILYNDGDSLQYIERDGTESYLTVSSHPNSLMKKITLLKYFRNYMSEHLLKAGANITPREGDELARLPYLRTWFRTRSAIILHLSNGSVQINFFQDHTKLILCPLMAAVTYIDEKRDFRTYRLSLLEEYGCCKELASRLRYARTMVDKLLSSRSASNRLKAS
For `Nc1[nH]nc2nnc(-c3c(-c4ccccc4)nn4ccccc34)cc12`, the remaining activity was 98.1%.
`COc1cc2ncc(-c3ccccc3)nc2cc1OC` gave a remaining activity of 98.5%.
`CC(C)[C@H](CO)Nc1nc(Nc2cccc(Cl)c2)c2ncn(C(C)C)c2n1` has a remaining activity of 89.2%.
`O=C(Nc1ccc(Cl)cc1)c1ccccc1NCc1ccncc1` gave a remaining activity of 103%.
For `O=c1cc(N2CCOCC2)oc2c1ccc1ccccc12`, the remaining activity was 68.4%.
`CCC(=O)Nc1ccc2ncnc(Nc3cccc(Br)c3)c2c1` has a remaining activity of 95.3%.
With `CC(C)c1nn(-c2c(Cl)cccc2Cl)c2nc(Cc3ccc(OCCO)cc3)[nH]c(=O)c12` the remaining activity was 93.9%.
The remaining activity of `COc1cc2ncnc(Nc3ccc(OCc4ccccc4)cc3)c2cc1OC` is reported as 101%.
`CC(=O)O/N=C1/C(c2c(O)[nH]c3cc(Br)ccc23)=Nc2ccccc21` has a remaining activity of 105%.
For `CCN1/C(=C/C(C)=O)Sc2ccc(OC)cc21`, the remaining activity was 97%.
With `Cn1cc(/C=C2\C(=O)Nc3ccc(S(N)(=O)=O)cc32)c2ccccc21` the remaining activity was 92.1%.
For `COc1ccc(Cl)cc1NC(=O)Nc1cc(C)nc2ccccc12`, the remaining activity was 96.9%.
`C[S+]([O-])c1ccc(-c2nc(-c3ccncc3)c(-c3ccc(F)cc3)[nH]2)cc1` (stereo not shown) gave a remaining activity of 100%.
For `COc1cc2ncnc(N3CCN(C(=O)Nc4ccc(Oc5ccccc5)cc4)CC3)c2cc1OC`, the remaining activity was 96.6%.
With `CCOc1cc2ncnc(Nc3cccc(Br)c3)c2cc1OCC` the remaining activity was 93.6%.
The remaining activity of `O=C1NC(=O)/C(=C/c2ccc3nccnc3c2)S1` is reported as 100%.
For `Cc1nc(Nc2ncc(C(=O)Nc3c(C)cccc3Cl)s2)cc(N2CCN(CCO)CC2)n1`, the remaining activity was 98.1%.
The remaining activity of `Cn1cnc2cc3c(Nc4cccc(Br)c4)ncnc3cc21` is reported as 97.6%.
With `CN(C)CCCn1cc(C2=C(c3c[nH]c4ccccc34)C(=O)NC2=O)c2ccccc21` the remaining activity was 101%.
`Cc1ccc(NC(=O)c2ccc(CN3CCN(C)CC3)cc2)cc1Nc1nccc(-c2cccnc2)n1` gave a remaining activity of 100%.
For `COc1ccc(-c2cnc3c(-c4ccsc4)cnn3c2)cc1`, the remaining activity was 101%.

Block 2 — species: human; matrix: microsomes or S9; concentration: 2 µM; time: 0.5 h
For `O=C(NCC1(c2cccs2)CCOCC1)c1ccc2ncsc2c1`, the remaining compound was 12.8%.
With `O=C(Nc1nc(-c2ccncc2)cs1)c1ccccn1` the remaining compound was 13.1%.
With `c1cc2c(cn1)cnn2Cc1nnc2ccc(-n3ncc4cnccc43)nn12` the remaining compound was 43.7%.
`Fc1ccc(-c2cc(-c3nc4c5c(ncn4n3)CCC5)[nH]n2)cc1` gave a remaining compound of 32.9%.
For `Cc1ccc(-n2ncc3c(C(C)C)nn(CC(=O)NC(C)(C)C)c(=O)c32)cc1C`, the remaining compound was 88.6%.
`COc1cccc2c1CCC(=O)N2CCCN1CCC(c2ccccc2)CC1` gave a remaining compound of 10.6%.
With `Cc1nc2[nH]nc(N)c2c(C)c1-c1cnn(CCC(C)C)c1` the remaining compound was 42%.
For `Clc1ccccc1/C=C/c1nnc(-c2ccccc2Cl)o1`, the remaining compound was 66.5%.
With `Clc1ccc(OCc2nnc(-c3cccnc3)[nH]2)cc1` the remaining compound was 76.6%.
For `Cn1cc(C(N)=O)cc1C(=O)Nc1ccccc1Oc1ccccc1`, the remaining compound was 14.8%.
`CCc1c(C(=O)OC(C)c2nnc(C)o2)[nH]c(C)c1C(C)=O` (stereo not shown) has a remaining compound of 88.9%.

Block 3 — observed: cell-free assay; method: competition with immobilised ligand; concentration: 1 µM
Compound: CC(=O)c1c(NS(C)(=O)=O)c2cc(-c3ccc(Cl)cc3)c(-c3ccc(Cl)cc3Cl)nc2n(C)c1=O
The remaining binding was 100% (Phosphatidylinositol 4,5-bisphosphate 3-kinase catalytic subunit alpha isoform (PIK3CA, Homo sapiens, UniProt P42336, E545A)).
It gave 96% for remaining binding (Phosphatidylinositol 4,5-bisphosphate 3-kinase catalytic subunit alpha isoform (PIK3CA, Homo sapiens, UniProt P42336, H1047L)).
It gave 100% for remaining binding (Tyrosine-protein kinase SYK (SYK, Homo sapiens, UniProt P43405)).
For Focal adhesion kinase 1 (PTK2, Homo sapiens, UniProt Q05397): remaining binding read 100%.
Serine/threonine-protein kinase PAK 5 (PAK5, Homo sapiens, UniProt Q9P286) — remaining binding: 98%.
Tyrosine-protein kinase Fes/Fps (FES, Homo sapiens, UniProt P07332) — remaining binding: 87%.
Megakaryocyte-associated tyrosine-protein kinase (MATK, Homo sapiens, UniProt P42679) — remaining binding: 83%.
It gave 81% for remaining binding (Serine/threonine-protein kinase LATS1 (LATS1, Homo sapiens, UniProt O95835)).
It gave 100% for remaining binding (Ephrin type-B receptor 3 (EPHB3, Homo sapiens, UniProt P54753)).
The remaining binding was 100% (Mitogen-activated protein kinase kinase kinase kinase 1 (MAP4K1, Homo sapiens, UniProt Q92918)).
It gave 76% for remaining binding (Mitotic checkpoint serine/threonine-protein kinase BUB1 (BUB1, Homo sapiens, UniProt O43683)).
It gave 90% for remaining binding (Angiopoietin-1 receptor (TEK, Homo sapiens, UniProt Q02763)).

Block 4
Compound: CC(=O)N[C@@H](Cc1c[nH]c2ccccc12)C(=O)N[C@@H](CCC(=O)C=[N+]=[N-])C(=O)OC(C)C
The remaining compound was 100% (mouse intestinal homogenate; 5 µM, 0 h, with: aprotinin 0.8 µM).
The remaining compound was 100% (mouse, EL4 tumour homogenate; 5 µM, 0 h, with: Pefabloc 1 mM).
The remaining compound was 100% (mouse EL4 tumour homogenate; 5 µM, 0 h, with: aprotinin 0.8 µM).
mouse EL4 tumour homogenate; 5 µM, 0 h, with: protease inhibitor mix — remaining compound: 100%.
For C57BL/6 CES1-/- mice, mouse plasma; 20 µM, 60 min, 37 °C: remaining compound read 94%.
mouse EL4 tumour homogenate; 5 µM, 0 h, with: PMSF 1.0 mM — remaining compound: 100%.
The remaining compound was 0.107% (mouse EL4 tumour homogenate; 5 µM, 1 h, with: aprotinin 0.8 µM).
It gave 100% for remaining compound (mouse intestinal homogenate; 5 µM, 0 h, with: E64 10 µM).
mouse EL4 tumour homogenate; 5 µM, 1 h, no inhibitor — remaining compound: 0.18% and 0.183%.
For mouse EL4 tumour homogenate; 5 µM, 1 h, with: E64 10 µM: remaining compound read 0.161%.
For mouse EL4 tumour homogenate; 5 µM, 1 h, with: bestatin 10 µM: remaining compound read 0.093%.
